# Experimental data of several laboratories.
# Protocols differ between the studies behind these lines. Values joined by “and” are separate records of one study, mostly repeats; a detail may differ. Numbers after ± are the reported error.
# CASP4: Caspase-4 (CASP4, Homo sapiens, UniProt P49662)
# ESR1: Estrogen receptor (ESR1, Homo sapiens, UniProt P03372)
# Nr3c1: Glucocorticoid receptor (Nr3c1, Rattus norvegicus, UniProt P06536)
# T1: FMN riboswitch G8A/G9A/G74A/G96A (Lactobacillus plantarum); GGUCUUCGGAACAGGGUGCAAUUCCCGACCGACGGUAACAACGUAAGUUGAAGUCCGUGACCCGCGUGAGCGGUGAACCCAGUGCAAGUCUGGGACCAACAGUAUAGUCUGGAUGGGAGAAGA
Substance,tested on,test,test system,conditions,scale,endpoint,result
CC(C(=O)O)c1ccc(C(=O)c2ccccc2)s1 (stereo not drawn),CASP4,,,"33 µM, together with: LEHD substrate",baseline: solvent control,remaining activity,4.32%
Nc1nc2c(ncn2[C@@H]2O[C@@H]3COP(=O)(O)O[C@H]3[C@H]2O)c(=O)[nH]1,"Cyclic nucleotide-gated channel alpha-2 (Cnga2, Rattus norvegicus, UniProt Q00195)","ion current, agonist, inside-out patch clamp",,"WT channel, +50 mV",baseline: cAMP at saturation,relative maximal current,1
CC[C@H](C)[C@H](NC(=O)[C@H](CC(C)C)NC(=O)[C@H](CC(C)C)NC(=O)CNC(=O)[C@H](Cc1ccc(O)cc1)NC(=O)[C@H](CCCNC(=N)N)NC(=O)[C@H](CO)NC(C)=O)C(=O)N[C@@H](CCCCN)C(=O)N[C@@H](C)C(=O)N[C@@H](Cc1ccccc1)C(=O)N[C@@H](CO)C(=O)N[C@@H](CCSC)C(=O)N[C@H](C(=O)N[C@@H](C)C(=O)N[C@@H](C)C(=O)N[C@@H](CCC(=O)O)C(=O)N[C@H](C(=O)N[C@@H](C)C(=O)N[C@@H](CCCNC(=N)N)C(=O)N[C@@H](CCCNC(=N)N)C(=O)N[C@H](C(=O)N[C@@H](CCCNC(=N)N)C(=O)N[C@@H](CCC(=O)O)C(=O)N[C@@H](Cc1ccccc1)C(=O)N[C@@H](CCCNC(=N)N)C(N)=O)[C@@H](C)O)[C@@H](C)O)[C@@H](C)O,calmodulin 1-80 sites I and II,"calcium binding, Phe fluorescence titration",,"12 µM, pH 7.4, 22 °C, together with: 6 µM calmodulin",,apparent ΔG2,-13.6 ± 0.15 kcal/mol
Cc1cc2nc3[nH]c(=O)[nH]c(=O)c3nc2cc1C,"T1, FMN riboswitch G8A/G9A/G74A/G96A (Lactobacillus plantarum)",ITC,,"pH 7.5, 25 °C, NaCl 100 mM",,Kd,0.035 µM
Clc1ccc2c(c1)CCc1cccnc1C2=C1CCN(CC2CCCC2)CC1,"Histamine H1 receptor (HRH1, Homo sapiens, UniProt P35367)","histamine-induced calcium response, antagonist",,"concentration not given, after washout of unbound compound, together with: histamine",,duration of complete antagonism,≥ 2 h
CNC(C)(C)C(=O)O,rat hippocampal neurons,"calcium-independent uptake, substrate",,15 min,,Km,474 ± 31 µM
CPCGARRPDSRLLELHIT (LAGE-1 (76-93); sequence looked up),HLA-DPB1*0401,"peptide binding, biotinylated peptide competition",peptide,,"baseline: peptide over reference peptide, lower = stronger binding",relative IC50,> 7300
O=C(O)Cc1ccc(-c2ccccc2)cc1,CASP4,,,"33 µM, together with: LEHD substrate",baseline: solvent control,remaining activity,8.11%
O=C1C=CCCC1,"Enoyl-ACP reductase (Thermus thermophilus, UniProt P83818)",,,"24 h, pH 7, 30 °C, aerobic, together with: 10 mM substrate, 15 mM NAD(P)H",,conversion,9 to 28%
O=C1Nc2ccccc2C1=O,"Parkinson disease protein 7 (PARK7, Homo sapiens, UniProt Q99497)","enzyme activity, inhibitor, HPLC",,"PARK7 5 µM, together with: dGTP 500 µM, methylglyoxal 5 mM",,protection against dGTP glycation,inhibited
O=C(/C=C/C=C/c1ccc2c(c1)OCO2)N1CCCCC1,"Nuclear receptor subfamily 1 group I member 2 (NR1I2, Homo sapiens, UniProt O75469)","MDR1 promoter reporter, activator, luciferase reporter","HepG2, no PXR transfection","24 h, 1% charcoal-stripped FBS",,EC50,0.98 µM
CCCC[C@H](NC(C)=O)C(=O)N[C@H]1CCC(=O)NC[C@@H](C(=O)N[C@@H](Cc2c[nH]c3ccccc23)C(N)=O)NC(=O)[C@H](CCCNC(=N)N)NC(=O)[C@@H](Cc2ccccc2)NC(=O)[C@H](Cc2c[nH]cn2)NC1=O,,,"CD Sprague Dawley rat, male, plasma","subcutaneous, 1.0 mg/kg daily, day 1",,half-life,52.1 min
collagenase,"CNGA3 (Homo sapiens, UniProt Q16281)","ion current, inside-out patch clamp",Xenopus oocytes,"100 nM, protease-treated channels",,Hill coefficient for cGMP,2.3
CN(c1ccccc1Cl)S(=O)(=O)C1CC2OC1C(c1ccc(O)cc1)=C2c1ccc(O)cc1 (stereo not drawn),ESR1,"reporter gene, antagonist",HepG2,together with: estradiol 10 nM,"baseline: E2 response, negative is inverse agonism",efficacy,41 ± 1%
CC(C)[C@H](NC(=O)[C@@H]1CCCN1C(=O)[C@H](CCCNC(=N)N)NC(=O)[C@H](CS)NC(=O)[C@H](Cc1c[nH]c2ccccc12)NC(=O)[C@H](CCCNC(=N)N)NC(=O)[C@@H](Cc1ccccc1)NC(=O)[C@H](Cc1c[nH]cn1)NC(=O)[C@H](CCC(=O)O)NC(=O)[C@H](CS)NC(=O)[C@H](CS)NC(=O)[C@H](CCCCN)NC(=O)[C@@H]1CC(=O)N[C@@H](CCCNC(=N)N)C(=O)N[C@@H](C)C(=O)N[C@@H](CC(=O)O)C(=O)N[C@H](Cc2ccc(O)cc2)C(=O)N1)C(N)=O [technetium-99m labelled],,,"C57 mice, liver","intravenous, 0.037 MBq, 4 h",,tissue uptake,1.8 ± 0.51 %ID/g
FEEPIYIEPIDFE,"Tyrosine-protein kinase CSK (CSK, Homo sapiens, UniProt P41240)",substrate,peptide,concentration not given,baseline: Glu or Asp Y-1 parent peptide,kcat/Km fold change,2.6 fold
NS(=O)(=O)OC[C@@H]1C[C@@H](n2ccc3c(N[C@H]4CCc5ccccc54)ncnc32)C[C@@H]1O,"Epidermal growth factor receptor (EGFR, Homo sapiens, UniProt P00533, L858R)",western blot,H3255,"1 µM, 2 h pretreatment",,degrader-induced degradation,inhibited
O=S(=O)(Nc1ccccc1)C1CC2OC1C(c1ccc(O)cc1)=C2c1ccc(O)cc1 (stereo not drawn),ESR1,"reporter gene, antagonist",HepG2,together with: estradiol 10 nM,"baseline: E2 response, negative is inverse agonism",efficacy,83 ± 5%
O=C(/C=C\n1cnc(-c2cc(C(F)(F)F)cc(C(F)(F)F)c2)n1)NNc1cnccn1,"Exportin-1 (CRM1, Saccharomyces cerevisiae, UniProt P30822, del377-413/T539C)","NES binding, pull-down",,"90 min, 4 °C, together with: 2 µM protein, 10 µM RanGTP",,concentration for complete inhibition,5 µM
O=C(O)c1c(Cl)c(Cl)c(Cl)c(Cl)c1-c1c2cc(I)c(=O)c(I)c-2oc2c(I)c(O)c(I)cc12,"Dual specificity protein phosphatase 5 (Homo sapiens, UniProt Q16690)",inhibitor,,"1 µM, illumination, gassed with air, N2 or O2","baseline: illuminated, without compound",enzyme velocity,decreased
Cc1cc(NC(=O)c2cccc(NC(=O)/C=C/CN(C)C)c2)ccc1Nc1nccc(-c2cccnc2)n1,"Mitogen-activated protein kinase 14 (MAPK14, Homo sapiens, UniProt Q16539)","target engagement in cells, inhibitor, chemoproteomics",A-375,1 µM,,inhibition,3.9%
O=S(=O)(O)c1cc(N=C=S)ccc1CCc1ccc(N=C=S)cc1S(=O)(=O)O,"SLC4A1 (Homo sapiens, UniProt P02730)",chloride exchange,human red blood cells,"pH 9.0, 0 °C, pH-induced inward chloride gradient, together with: external chloride 60 mM",,ID50,0.72 µM and 0.3 µM and 0.4 µM and 0.41 µM
"Ac-ALPCA-NH2 (N-acetyl, C-amide)","Fibroblast growth factor 2, with pentraxin 3 (Homo sapiens, UniProt P09038)","binding to PTX3, competitor, surface plasmon resonance",peptide,together with: 150 nM free FGF2,,ID50,> 3000 µM
CSc1nc2c([nH]1)c(=S)n(C)c(=S)n2C,Nr3c1,"reporter gene, antagonist, MMTV-luciferase",T47D/A1-2,"10 µM, 24 h, together with: 5 nM dexamethasone",baseline: maximal activity,remaining activity,103%
O[C@H]1[C@H]2c3cc4c(cc3CN3CCC(=C[C@@H]1O)[C@H]23)OCO4,"Genome polyprotein, NS5 (ZIKV, UniProt A0A024B7W1)","cellular thermal shift, refers to: NS5 protein","Zika virus, Vero cell lysate",20 µM,,aggregation temperature,47.8 °C
COC(=O)CCC(C(=O)C=Cc1ccc(O)c(OC)c1)C(=O)C=Cc1ccc(O)c(OC)c1 (stereo not drawn),"Amyloid-beta precursor protein (APP, Homo sapiens, UniProt P05067)","Aβ aggregation, SDS-PAGE western blot, refers to: Aβ1-42 75-200 kDa band",,"30 µM, 24 h, 37 °C, together with: Aβ1-42 10 µM",baseline: DMSO,band density,501 ± 204%
CC[C@H](C)[C@H](NC(=O)[C@H](CCCCN)NC(=O)[C@H](CC(C)C)NC(=O)[C@H](CC(C)C)NC(=O)[C@@H]1CCCN1C(=O)[C@H](CC(C)C)NC(=O)[C@H](CCCCN)NC(=O)[C@@H]1CCCN1C(=O)[C@H](CCCNC(=N)N)NC(=O)[C@@H](NC(=O)[C@H](CCC(N)=O)NC(=O)[C@H](CC(N)=O)NC(C)=O)C(C)C)C(=O)N[C@@H](CC(C)C)C(=O)N[C@@H](Cc1c[nH]cn1)C(=O)N[C@@H](C)C(=O)N[C@@H](C)C(=O)NCC(=O)N[C@@H](C)C(=O)N[C@@H](CCC(N)=O)C(=O)N[C@@H](Cc1ccc(O)cc1)C(N)=O,"Protein S100-B (Homo sapiens, UniProt P04271)","binding, NMR line shape, NMR only",,"35 °C, low salt",,koff,10 ± 2 s⁻¹
CC(C)[C@H](NC(=O)[C@H](CCCNC(=N)N)NC(=O)[C@@H](NC(=O)[C@H](CCC(N)=O)NC(=O)[C@H](CCC(N)=O)NC(=O)[C@@H](NC(=O)[C@H](Cc1c[nH]c2ccccc12)NC(=O)[C@@H]1CCCN1C(=O)[C@@H]1CCCN1C(=O)[C@H](Cc1ccccc1)NC(=O)[C@@H](CO)NC(=O)CNC(=O)[C@H](CCCNC(=N)N)NC(=O)[C@H](CCCNC(=N)N)NC(=O)[C@H](CCCNC(=N)N)NC(=O)[C@H](CCCNC(=N)N)NC(=O)[C@H](CCCNC(=N)N)NC(=O)[C@@H](N)CCCNC(=N)N)C(C)C)[C@@H](C)O)C(=O)O,"Disks large homolog 4, PDZ3 domain (Homo sapiens, UniProt P78352)","binding, surface plasmon resonance",,"pH 7.5, 25 °C",,kon,633000 M⁻¹ s⁻¹
CC(C)C[C@H](NC(=O)[C@H](CO)NC(=O)CNC(=O)[C@H](CCC(=O)O)NC(=O)[C@H](CO)NC(=O)[C@H](CS)NC(=O)[C@@H]1CCCN1C(=O)[C@H](CO)NC(=O)[C@H](CO)NC(=O)[C@@H](NC(=O)[C@H](CC(N)=O)NC(=O)[C@H](Cc1ccccc1)NC(=O)[C@@H](NC(=O)[C@H](Cc1ccccc1)NC(=O)[C@H](C)NC(=O)[C@H](Cc1c[nH]cn1)NC(=O)[C@@H]1CCCN1C(=O)[C@@H](NC(=O)[C@H](COP(=O)(O)O)NC(=O)[C@H](Cc1ccc(O)cc1)NC(=O)[C@H](CCCNC(=N)N)NC(=O)[C@H](Cc1c[nH]cn1)NC(=O)[C@@H](N)CCC(N)=O)[C@@H](C)O)[C@@H](C)O)[C@@H](C)O)C(=O)N[C@@H](CO)C(=O)N[C@@H](CCC(N)=O)C(=O)N[C@@H](CCCNC(=N)N)C(=O)N[C@@H](CCC(N)=O)C(=O)N[C@@H](CCCNC(=N)N)C(=O)N[C@@H](CO)C(=O)N[C@H](C(=O)N[C@@H](COP(=O)(O)O)C(=O)N[C@H](C(=O)N1CCC[C@H]1C(=O)N[C@@H](CC(N)=O)C(=O)N[C@H](C(=O)N[C@@H](Cc1c[nH]cn1)C(N)=O)C(C)C)[C@@H](C)O)[C@@H](C)O,"14-3-3 protein sigma (SFN, Homo sapiens, UniProt P31947)",ITC,,"concentration not given, pH 7.4, 25 °C, exothermic, sign omitted, together with: protein 50 µM",,binding enthalpy,15.8 ± 0.239 kcal/mol
C#CCO[C@@H]1CC[C@H](Cc2ccccc2)N(C(=O)n2ncc(C(O)(c3ccc(F)cc3)c3ccc(F)cc3)n2)C1,"Diacylglycerol lipase-alpha (Mus musculus, UniProt Q6WQJ1)","enzyme activity, inhibitor",,,,kinact,~0.00117 s⁻¹
CC(=O)C(=O)O,"pyc (Rhizobium etli, UniProt Q2K340)","coupling of carboxylation to ATP hydrolysis, activator",,together with: saturating acetyl-CoA,,Ka,0.25 mM
COc1cccc(C(=O)Nc2cccc(-c3nc4ncccn4c3C)c2)c1,"GPR32 (Homo sapiens, UniProt O75388)","β-arrestin recruitment, agonist, PathHunter",CHO cells expressing GPR32,concentration not given,baseline: vehicle,efficacy,46.6%
CCCSc1nc2c([nH]1)c(=O)n(C)c(=O)n2C,Nr3c1,"reporter gene, antagonist, MMTV-luciferase",T47D/A1-2,"10 µM, 24 h, together with: 5 nM dexamethasone",baseline: maximal activity,remaining activity,101%
"Ac-GPSLNPFDEED-NH2 (N-acetyl, C-amide)","EHD1 EH domain, mouse",ITC,peptide,"pH 7.0, 20 °C, 0 mM KCl, first titration",,ΔS,-11.4 cal/mol/K
O=C1CC(c2ccccc2)CC(=O)C1CS(=O)(=O)c1ccccc1 (stereo not drawn),"Sphingomyelin phosphodiesterase (SMPD1, Homo sapiens, UniProt P17405)",inhibitor,,"concentration not given, pH 5.0",baseline: HMU-PC over sphingomyelin substrate,inhibition fold change,55.6 fold
CC1=C(C(=O)O)N2C(=O)[C@@H](NC(=O)[C@H](N)c3ccc(O)cc3)[C@H]2SC1,"Solute carrier family 15 member 1 (Slc15a1, Mus musculus, UniProt Q9JIP7)",intestinal uptake,"wild-type mouse, jejunum","0.01 to 25 mM, pH 6.5",,apparent Vmax,4.8 ± 0.4 nmol/cm²/s

# Excerpt of the above:
Substance,tested on,test,test system,conditions,scale,endpoint,result
O=C1C=CCCC1,"Enoyl-ACP reductase (Thermus thermophilus, UniProt P83818)",,,"24 h, pH 7, 30 °C, aerobic, together with: 10 mM substrate, 15 mM NAD(P)H",,conversion,9 to 28%
O=C1Nc2ccccc2C1=O,"Parkinson disease protein 7 (PARK7, Homo sapiens, UniProt Q99497)","enzyme activity, inhibitor, HPLC",,"PARK7 5 µM, together with: dGTP 500 µM, methylglyoxal 5 mM",,protection against dGTP glycation,inhibited
O=C(/C=C/C=C/c1ccc2c(c1)OCO2)N1CCCCC1,"Nuclear receptor subfamily 1 group I member 2 (NR1I2, Homo sapiens, UniProt O75469)","MDR1 promoter reporter, activator, luciferase reporter","HepG2, no PXR transfection","24 h, 1% charcoal-stripped FBS",,EC50,0.98 µM
